Experimental data collected from several papers.
Parts stem from different laboratories: compare values within a part only. Positions count from the first letter of the parent shown.

Block 1
Target: Histone acetyltransferase KAT6A, winged helix 1, GST fusion (KAT6A, Homo sapiens, UniProt Q92794, residues 1-85)
Technique: protein binding microarray
Form: double-stranded DNA, one strand shown
Matrix: in vitro
Concentration: not given
Notes: 8-mer, flanks averaged, mean of 2 arrays, mostly near background
Reference: not given
Reading: higher = stronger binding
Construct (chain): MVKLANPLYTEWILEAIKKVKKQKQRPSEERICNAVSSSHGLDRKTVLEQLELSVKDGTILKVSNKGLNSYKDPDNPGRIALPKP
| Sequence | E-score |
| --- | --- |
| CATACTGG | -0.0366 |
| CGCCCTTA | 0.0516 |
| CTATCCAG | -0.169 |
| AAGCACCG | 0.132 |
| GTGAGGGA | -0.109 |
| AAAGGCAC | 0.0586 |
| AGCGGTTG | 0.103 |
| TCTCGTCA | -0.234 |
| GATATGTA | -2.5e-05 |
| CTCCCCAA | -0.144 |
| CGCTTAAA | 0.0802 |
| GGCTAAGA | -0.049 |
| GATAATCC | 0.00346 |
| ATGAGTGA | -0.207 |
| CAAACGAG | -0.0664 |
| GAATATGC | 0.00639 |
| GTGGGGAA | -0.17 |
| CAATTACA | -0.0704 |
| AATCCTGC | -0.104 |
| ACTGTATG | -0.14 |
| AATGCTAG | -0.0761 |
| ACCTGAGA | -0.224 |
| AGCCTAGG | -0.0703 |
| AATAAGCA | -0.243 |
| CTGCTCCC | -0.0606 |

Block 2
Target: Interferon regulatory factor 5, full length, phosphomimetic (IRF5, Homo sapiens, UniProt Q13568-2, residues 1-514, K96S/S451D/S453D/S456D/S462D)
Technique: protein-binding microarray
Form: double-stranded DNA, one strand shown
Matrix: in vitro
Concentration: 250 nM
Notes: 60-bp whole probe
With: salmon DNA 0.4 mg/ml
Reference: random background probes
Reading: higher = stronger binding
Constant ends, left off below: GCCTAGCAC … GTCTTGATTCGCTTGACGCTGCTG
| Sequence | log fluorescence [z-score] |
| --- | --- |
| GACTATGCCGACTTTGGAAGTGTGCTA | -0.447 |
| TCATTTTTATCAAATGTGACTGTGCTA | 0.777 |
| GAAGGTATCGGACTGGGGACGTGCTAG | 0.802 |
| TTAGATTTCTGTATCGATTAGTGCTAG | 7.37 |
| TTAGGTCTCCTCATCCTTTAGTGCTAG | -0.297 |
| GACGGTCTCGGAATCGGGACGTGCTAG | 0.144 |
| GTCGGTATCGGGTTTCGGGACGTGCTA | 5.55 |
| CACGGTATCCTTTTCCTGACGTGCTAG | 0.133 |
| TCATTTTCATTTTATGACACTGTGCTA | 4.01 |
| GCCTCTAGGTTTTCTGGAGACGTGCTA | -0.185 |
| TCAGATTTCCACTTTCTACTGTGCTAG | 2.47 |
| CTAAAACTCTTTATTTAAGCGTGCTAG | 0.482 |
| TCATTTTAATTTTTAACACTGTGCTAG | 0.862 |
| TTAGGTCTCCTTTACCTTTAGTGCTAG | -0.192 |
| TCATGAAGCGCTTCTCGAACTGTGCTA | 0.0427 |
| TTAGGTATCCTTATCCTTTTGTGCTAG | 0.349 |
| GACGAACTGAGTTTCTAGACGTGCTAG | 0.658 |
| GACGGACTGGACACTGCGGACGTGCTA | -0.672 |
| TTAGATTTCAGTCACGATTAGTGCTAG | 1.98 |
| TTAGGACTGGACACTGGGCTAGTGCTA | -0.459 |
| TCATGTTTCTCAACCAGACTGTGCTAG | 0.595 |
| TGAGGTTTCCTTCTCCTTTAGTGCTAG | 0.943 |
| GACGGTATCGGGGATCGGGACGTGCTA | 0.986 |

Block 3
Target: ABI1, truncated, D143A, DHFR fusion (Arabidopsis thaliana)
Technique: DHFR PCA, deep sequencing
Matrix: yeast
Notes: methotrexate growth selection, single substitutions
With: (+)-ABA 710 µM
Reference: wild-type fitted maximum
Reading: higher = stronger binding
Starting sequence: PYL1, truncated, DHFR fusion (Arabidopsis thaliana); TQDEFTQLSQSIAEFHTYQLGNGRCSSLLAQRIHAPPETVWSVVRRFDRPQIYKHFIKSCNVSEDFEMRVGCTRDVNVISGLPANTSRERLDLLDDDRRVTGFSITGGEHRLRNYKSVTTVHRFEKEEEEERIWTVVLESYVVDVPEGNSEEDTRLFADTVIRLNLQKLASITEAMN
| Change | relative binding score [%] |
| --- | --- |
| S140P | 8.4 |
| T6P | 112 |
| R46E | 95.4 |
| W134A | 114 |
| I133T | 107 |
| E152H | 98.9 |
| R24A | 97 |
| C60V | 98.3 |
| S117E | 15.6 |
| V136A | 87.8 |
| N85I | 103 |
| R69Q | 116 |
| D96A | 75.2 |
| E130R | 107 |
| E89A | -4.89 |
| S140L | -1.94 |
| D48F | 44.4 |
| E152Y | 93.5 |
| E67S | 102 |
| R69G | 103 |
| A158E | -1 |
| I79H | 107 |
| I79N | 102 |

Block 4
Target: Runt-related transcription factor 3, Runt domain (RUNX3, Homo sapiens, UniProt Q13761, residues 53-186)
Sequence of UniProt Q13761 (53-186, looked up): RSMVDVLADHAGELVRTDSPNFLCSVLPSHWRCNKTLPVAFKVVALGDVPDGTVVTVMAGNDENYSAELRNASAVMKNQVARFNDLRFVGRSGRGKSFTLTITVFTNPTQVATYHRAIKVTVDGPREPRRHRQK
Technique: protein-binding microarray
Form: hairpin DNA
Matrix: in vitro
Concentration: not given
Notes: whole hairpin DNA, median over replicate spots
Reference: not given
Reading: higher = stronger binding
| Sequence | median fluorescence [a.u.] |
| --- | --- |
| GAGGCCTGCGGCGGTTGGCCTCCTGGCCAACCGCCGCAGGCCTCACACTC (5mC at 9) | 6150 |
| GAGGCCTGTCCGGGTTGGCCTCCTGGCCAACCCGGACAGGCCTCACACTC | 5170 |
| CTCAGTTGTGTGGGCTGGACTCCTGTCCAGCCCACACAACTGAGACACTC | 4380 |
| CTCAGTCCTGTGGGCTGGACTCCTGTCCAGCCCACAGGACTGAGACACTC (5mC at 7) | 4030 |
| CTCAGTTCTGAGGGCTGGACTCCTGTCCAGCCCTCAGAACTGAGACACTC | 3850 |
| GAGGCCTGTGGTGGTTGGCCTCCTGGCCAACCACCACAGGCCTCACACTC | 5730 |
| GAGGCCTCTTGCGGTTGGCCTCCTGGCCAACCGCAAGAGGCCTCACACTC (5mC at 8) | 7860 |
| GAGGCCTGTTGTGGTGGGCCTCCTGGCCCACCACAACAGGCCTCACACTC (5mC at 29) | 4990 |
| CTCAGTTCTGTGGGCTGGACTCCTGTCCAGCCCACAGAACTGAGACACTC (5mC at 33) | 4180 |
| GAGGCCTGTCGCGGTCGGCCTCCTGGCCGACCGCGACAGGCCTCACACTC (5mC at 16 28) | 6270 |
| GAGGCCTGTTGTGGTTTGCCTCCTGGCAAACCACAACAGGCCTCACACTC | 5950 |
| CTCAGTTCTGTGGGCTCGACTCCTGTCGAGCCCACAGAACTGAGACACTC (5mC at 17) | 4410 |
| GAGGCCTGTCGCGGTCGGCCTCCTGGCCGACCGCGACAGGCCTCACACTC (5mC at 16) | 5910 |
| GAGGCCTGTTCGGGTTGGCCTCCTGGCCAACCCGAACAGGCCTCACACTC (5mC at 11 33) | 4790 |
| GAGGCCCGACCGCAACAGCCTCCTGGCTGTTGCGGTCGGGCCTCACACTC (5mC at 7) | 8760 |

Block 5
Target: Hepatocyte nuclear factor 3-alpha (Foxa1, Mus musculus, UniProt P35582, residues 1-468, full length assumed)
Sequence of UniProt P35582 (whole entry, looked up): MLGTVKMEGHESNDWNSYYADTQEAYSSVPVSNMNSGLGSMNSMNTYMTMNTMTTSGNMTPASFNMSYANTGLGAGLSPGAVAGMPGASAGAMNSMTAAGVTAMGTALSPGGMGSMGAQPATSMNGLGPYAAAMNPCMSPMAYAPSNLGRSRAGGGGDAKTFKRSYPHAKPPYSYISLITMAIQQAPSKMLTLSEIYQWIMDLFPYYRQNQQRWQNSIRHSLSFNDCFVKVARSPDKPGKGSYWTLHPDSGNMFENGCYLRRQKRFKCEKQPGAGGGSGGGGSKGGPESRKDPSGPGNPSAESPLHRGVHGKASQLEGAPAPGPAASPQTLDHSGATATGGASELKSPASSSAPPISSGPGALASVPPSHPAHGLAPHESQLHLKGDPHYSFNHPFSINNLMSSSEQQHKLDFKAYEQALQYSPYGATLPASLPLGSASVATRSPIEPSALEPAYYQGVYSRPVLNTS
Technique: EMSA with sequencing
Form: double-stranded DNA, one strand shown
Matrix: in vitro
Concentration: 10 and 20 nM
Notes: whole designed probe, mean of two concentrations, ends assumed
Reference: negative control set to 0
Reading: higher = stronger binding
Constant ends, left off below: GTGAGCGGTGCCCATTGATGGGGAAC … TTTCACTGGGATCGTGGGGAC
| Sequence | normalised bound fraction [ratio] |
| --- | --- |
| ATGCTTGGAAATATTTTAAACAGTGAAATCACCAACAAAAAGAGCATAAAAATGTGAAAAACATGGCTCTAAATAGCCCGCCAAAAGGGCACTTATTTACAGAGCTGAACCACAAAGGCAGAACGTCATCTTGTTCGATCTCAGCTAGGAACGTGCTCATAGGGTGACTCAGATTTTTGGCCACTGTGTGCAT | 0.108 |
| TATCTTTCCTCTGACTGACAGCCTGAAGGATCGTCTATGTGATTTTTGTGTTGCTGAGGTGAAAACAATCTTTATTTGGATTGAATAGCAGAGTAATCTGGAATGAAAAAGAGACACAAAAGTTTACAGTACAGATGGTTTTCCAATTCTTTTACAAAAATTGTCTGTCTTATCAATTAAAGGTGCATTTACC | 0.0113 |
| CACCGCGCTCGCACGGCTTTGTCCGTGCTACAAAGCAGCCTGTTAAACTATTGGAACTAATGCGCCGCAGCTGCGCGAGTGACTTCTGCTGCTTATGTACATAAAAAGTCCTGGGGCGACGGCTTAACCATCAGATGCCTGCTGCTGGGTTGTTTGGCTAGTCTTTCCATTTGCTTATTCCTGAATCCAAAGG | 0.336 |
| ATCTTCCCCCTCTTCCTTGCCCCACCAGCTCACCTACGGGGGTTATTTGCAGATAGGAAAATAAATAAAGCCGGCATTCGTTAACGCAGTTCACGCGCATACTGCTGTTTGCTCTGCATCTAACATGGTCCTTACGCGAGGCGTGGCTCCGGGAGAGCAAAGCACCGTGTCAGGCGCATGATCCGGGCTCGCC | 0.359 |
| TGTGTTCAGTAAACTACATTTAAAAAAACTAGGAAAGACTATACTTTCAGGGGTCATTTCTATCTGAACAACCTGCTCCTGAATGACTAATGGGTAAATAATGAAATTAAGGCAGAAATAAACAAGTTCTTTGAAAACAGTGAGAACAAAGACACAACGTACCAAAATCTCTGGGACACAGCTAAAGCAGTGT | 0.172 |
| GACAGTACATGTTTTAGGATTTTTGGACCACACAGTCTCTGTCACAATGACTCAGCTTTGCCATTGTAGCGTGCAAACAGCCACAAACCATATGCAAACAAATGTATGCCAATAAAACTTGAGGGTGTGGTTATTTACAAAAGCAGGAGGACAGTGGAGTTGGCTTGCAGACAGTCATTTGCAGAGCCCTGAT | 0.39 |
| ATTTTATAAGACATCGAAGGAAAAAATGAAATTAGAATAAGCATTCTTTTGTTTTGTTTTGTTTAAGTAAGGAAAACAAAAATAGAAAGACAATGTAAACATCAGTGGGGAAATGTAAGTATGAACACACGAGGAACCATCTGGGAAAGTGATCACAGGATATGATACAGCACATGAAAAAATACACAAATAG | 0.444 |
| ATCTTCCCCCTCTTCCTTGCCCCACCAGCTCACCTTCCCGGGTTATTTGCACAAAGGAAAATAAATAAAGCCGGCATTCGTTAACGCAGTTCACGCGCATACTGCTGTTTGCTCTGGATCTAACATGGTCCTTTGGCGACGCCAGGCTCCGGGAGAGCAAAGCACCGTGTCAGGGCCATGATCCGGGCTCGCC | 0.375 |

Block 6
Target: Sal-like protein 4, full length isoform A (SALL4, Homo sapiens, UniProt Q9UJQ4, residues 1-1053)
Sequence of UniProt Q9UJQ4 (whole entry, looked up): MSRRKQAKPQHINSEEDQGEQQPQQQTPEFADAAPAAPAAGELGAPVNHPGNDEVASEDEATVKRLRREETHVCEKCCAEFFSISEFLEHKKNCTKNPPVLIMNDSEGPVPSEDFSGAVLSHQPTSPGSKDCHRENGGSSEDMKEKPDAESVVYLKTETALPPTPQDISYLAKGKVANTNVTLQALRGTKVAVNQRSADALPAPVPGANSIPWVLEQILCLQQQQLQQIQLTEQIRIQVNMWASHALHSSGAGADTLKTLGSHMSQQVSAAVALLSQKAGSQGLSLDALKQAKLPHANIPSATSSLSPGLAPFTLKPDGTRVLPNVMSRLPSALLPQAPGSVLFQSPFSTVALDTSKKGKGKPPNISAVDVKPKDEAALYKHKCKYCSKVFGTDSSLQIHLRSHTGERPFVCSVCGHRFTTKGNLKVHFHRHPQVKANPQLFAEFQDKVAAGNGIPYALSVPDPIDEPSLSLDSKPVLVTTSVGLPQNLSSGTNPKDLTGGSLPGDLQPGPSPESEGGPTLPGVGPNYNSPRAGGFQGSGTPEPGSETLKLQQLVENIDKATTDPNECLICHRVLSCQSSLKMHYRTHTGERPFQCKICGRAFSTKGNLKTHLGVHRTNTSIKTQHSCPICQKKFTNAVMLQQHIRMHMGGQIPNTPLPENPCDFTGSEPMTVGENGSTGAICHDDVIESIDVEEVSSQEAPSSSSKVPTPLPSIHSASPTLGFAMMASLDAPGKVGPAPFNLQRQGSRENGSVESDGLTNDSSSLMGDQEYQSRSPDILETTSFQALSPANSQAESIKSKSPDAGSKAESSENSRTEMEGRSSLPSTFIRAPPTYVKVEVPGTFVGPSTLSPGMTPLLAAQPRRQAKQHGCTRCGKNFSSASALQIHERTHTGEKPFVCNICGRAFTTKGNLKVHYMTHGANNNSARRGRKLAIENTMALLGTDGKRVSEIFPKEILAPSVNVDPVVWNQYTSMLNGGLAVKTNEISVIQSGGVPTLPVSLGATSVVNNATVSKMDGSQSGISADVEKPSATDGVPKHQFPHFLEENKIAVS
Technique: universal PBM
Form: double-stranded DNA, one strand shown
Matrix: in vitro
Concentration: 600 nM
Notes: 8-mer, flanks averaged, mean of replicates
Reading: higher = stronger binding
| Sequence | E-score |
| --- | --- |
| CGTAACAC | 0.1 |
| GACGTAAA | 0.00762 |
| GAAGCGGA | -0.199 |
| ACGTGCAT | 0.128 |
| GCAACACC | -0.161 |
| CCGATTCA | 0.0399 |
| AACGAGTC | 0.111 |
| GTCCGGTA | -0.0997 |
| AGTTAAGA | 0.0775 |
| GGTCCAGA | -0.198 |
| CTCTGCAA | 0.0823 |
| CAATCTTC | 0.0577 |
| CCTATCGA | 0.0938 |
| AGTAGGGC | -0.0725 |
| TGCGCAAA | 0.00411 |
| AATTTCCA | 0.194 |
| TCCATGGA | -0.0146 |
| CGAGTCAG | -0.117 |
| AAGTGGGA | 0.196 |
| GGGGACAA | -0.183 |
| ACCTTCTC | -0.0686 |
| ACTGAGCA | -0.0362 |
| CTGGGCTC | -0.3 |
| CGACTGTA | -0.173 |
| ACGTGCGG | -0.191 |

Repeated from above (block 2):
| Sequence | log fluorescence [z-score] |
| --- | --- |
| TCATGTTTCTCAACCAGACTGTGCTAG | 0.595 |
| TTAGGTCTCCTCATCCTTTAGTGCTAG | -0.297 |
| TTAGGTCTCCTTTACCTTTAGTGCTAG | -0.192 |
| TCAGATTTCCACTTTCTACTGTGCTAG | 2.47 |
| TCATTTTCATTTTATGACACTGTGCTA | 4.01 |
| TTAGATTTCTGTATCGATTAGTGCTAG | 7.37 |
| GAAGGTATCGGACTGGGGACGTGCTAG | 0.802 |
| TTAGATTTCAGTCACGATTAGTGCTAG | 1.98 |
| GACGGACTGGACACTGCGGACGTGCTA | -0.672 |
| TTAGGACTGGACACTGGGCTAGTGCTA | -0.459 |
| GCCTCTAGGTTTTCTGGAGACGTGCTA | -0.185 |
| TCATTTTAATTTTTAACACTGTGCTAG | 0.862 |
| TGAGGTTTCCTTCTCCTTTAGTGCTAG | 0.943 |
